Measurements from different studies.
Compare with care: the assays were run in different laboratories. “And” joins repeats or separate records; there may be more than shown. Numbers after ± are the reported error.

SMILES	test	test system	setting	how to read	endpoint	value
CN[C@@H](C)C(=O)N[C@H]1CN(S(=O)(=O)c2cccc(S(=O)(=O)N3CC[C@H]4CC[C@@H](C(=O)NC(c5ccccc5)c5ccccc5)N4C(=O)[C@@H](NC(=O)[C@H](C)NC)C3)c2)CC[C@H]2CC[C@@H](C(=O)NC(c3ccccc3)c3ccccc3)N2C1=O	LC-MS/MS, noncompartmental	human, plasma	20 mg, cycle 1 day 1		Vss	103 L
CCc1cc(C(=O)NC)c2nccc(N3CCc4c(cc(Cn5ccnc5)cc4-c4cn(C)nc4C(F)(F)F)C3=O)c2c1		Sprague Dawley rats	oral, 50 mg/kg once daily, 7 days		serum GGT activity	0.5 ± 0.58 U/L
Cn1cncc1-c1c(F)cncc1NC(=O)c1c(N)nn2cc(F)cnc12		patients, advanced solid tumours	oral, 130 mg once daily	reference: patients	grade ≥2 adverse events	57.1%
C[C@@H](N)C1CCN(S(=O)(=O)c2cccc3cnccc23)CC1		healthy volunteers	25 mg and 250 mg combined, fasted		discontinuations due to TEAEs	0%
CNc1ccc(-c2nc3ccc(O)cc3s2)cc1 [carbon-11 labelled]	microPET/CT imaging	B6SJL mouse, normal, brain	intravenous, 10 min		SUV	0.381 ± 0.118
COc1cc(N2CCC(N3CCN(C)CC3)CC2)ccc1Nc1ncc(Cl)c(Nc2ccccc2P(C)(C)=O)n1		nude mice, NCI-H3122 xenograft	intraperitoneal, 10 mg/kg every other day, day 3		body weight	23.8 g and 24 g and 20.5 g and 23 g and 23.4 g
CCOc1c([C@H](C)n2nc(C)c3c(N)ncnc32)cc(Cl)c(F)c1[C@@H]1CNC(=O)C1	measured: QTcF above 500 ms	previously treated B-cell malignancy	oral, 30 mg once daily, baseline QTcF ≤450 ms		ECG observations	0%
O=C(Nc1nc2cccc(-c3ccc(CN4CCS(=O)(=O)CC4)cc3)n2n1)C1CC1	measured: general and administration-site disorders	rheumatoid arthritis patients	oral, 300 mg once daily, 4 weeks, any relatedness		treatment-emergent adverse events	10%
C[Si](C)(C)O[Si](C)(C)O[Si](C)(C)C			2.7 to 6.3 µg/L, 20.8 °C		log KOA	3.79
Cc1cc(NC2CCN(C(=O)OC3CCN(C(=O)/C=C/CN(C)C)C3)CC2)n2ncc(C(C)C)c2n1 (stereo not shown)	Phase I dose escalation CTCAE v4.0, measured: maculo-papular rash	patients with advanced solid tumours	dose not given, Total dosing grade 3 or higher		patients with adverse event	0%
O=C(N[C@H](Cc1c[nH]c2ccccc12)C(=O)Nc1ccncc1)c1ccc(N2CCN(c3ccc(F)c(F)c3)CC2)cc1F		Swiss Webster mouse, female, lung	oral, 50 mg/kg, 8 h, 20% HPβCD vehicle		concentration	1280 nM
Cc1cn([C@H]2C[C@H]([18F])[C@@H](CO)O2)c(=O)[nH]c1=O	PET/CT	Sprague-Dawley rat	intranasal		nasal cavity clearance time	≤ 20 min
OB1NN=Cc2ccccc21	stability, UPLC-MS	diluted serum	6 day, 37 °C	higher = more compound remaining	peak area	314000 a.u. and 299000 a.u. and 316000 a.u.
C1=C/COCc2cc(ccc2OCCN2CCCC2)Nc2nccc(n2)-c2cccc(c2)COC/1		BALB/c mice, rhEPO-induced polycythemia	120 mg/kg, day 0		body weight	17.6 g and 20.1 g and 18.3 g and 19 g and 18.9 g and 18.1 g
CC[C@H](C)[C@H](NC(=O)[C@H](Cc1ccccc1)NC(=O)[C@H](CCC(=O)O)NC(=O)[C@H](CCCCNC(=O)COCCOCCNC(=O)COCCOCCNC(=O)CC[C@H](NC(=O)CCCCCCCCCCCCCCCCC(=O)O)C(=O)O)NC(=O)[C@H](C)NC(=O)[C@H](C)NC(=O)[C@H](CCC(N)=O)NC(=O)CNC(=O)[C@H](CCC(=O)O)NC(=O)[C@H](CC(C)C)NC(=O)[C@H](Cc1ccc(O)cc1)NC(=O)[C@H](CO)NC(=O)[C@H](CO)NC(=O)[C@@H](NC(=O)[C@H](CC(=O)O)NC(=O)[C@H](CO)NC(=O)[C@@H](NC(=O)[C@H](Cc1ccccc1)NC(=O)[C@@H](NC(=O)CNC(=O)[C@H](CCC(=O)O)NC(=O)C(C)(C)NC(=O)[C@@H](N)Cc1cnc[nH]1)[C@@H](C)O)[C@@H](C)O)C(C)C)C(=O)N[C@@H](C)C(=O)N[C@@H](Cc1c[nH]c2ccccc12)C(=O)N[C@@H](CC(C)C)C(=O)N[C@H](C(=O)N[C@@H](CCCNC(=N)N)C(=O)NCC(=O)N[C@@H](CCCNC(=N)N)C(=O)NCC(=O)O)C(C)C	12-lead Holter ECG	healthy humans	subcutaneous, 1.5 mg once weekly, 12 h, steady state	reference: placebo	QTcB change from baseline	7.9 ms
CCc1c(-c2ccccc2)c(-c2ccccc2)nn1-c1ccccc1-c1cccc(OCC(=O)O)c1		Sprague-Dawley rat	oral, dose not given		AUMC extrapolated observed	0.964% and 1.08% and 2.05%
C[C@@H]1OC(=O)[C@H](Cc2ccccc2)[C@H]1O	aerobic dark soil incubation	soil	geometric mean of 4 soils, persistence endpoint		DT50	0.57 days
Cc1ccc(C(=O)N(CCCN)C(c2nc3snc(C)c3c(=O)n2Cc2ccccc2)C(C)C)cc1 (stereo not shown)		human patients	intravenous, 4 mg/day		grade ≥3 hypokalemia patients	0%
CCCCCCCOc1ccc(CCC(N)(CO)CO)cc1C(F)(F)F.Cl		healthy men	oral, 0.5 mg, day 1		renal clearance	0.0582 mL/min
CN1CCC[C@H](CN2c3ccccc3Sc3ccccc32)C1.Cl		Wistar rat female, liver	oral, 16 mg/kg		AUC(0-t)	138000 ng·h/mL
COCc1cc(C(=O)Nc2cc([C@H]3CC[C@@H](OC(=O)NC(C)C)C3)[nH]n2)n(C)n1		OVCAR-3 xenograft, NOD/SCID gamma mice, plasma	oral, 125 twice daily, PK/PD study		Tmax	7.5 h
CC(C)C(=O)O[C@H]1[C@H](C)OC(=O)[C@@H]1Cc1ccccc1		Staffordshire loam sediment, aerobic dark	20 °C		DT50 water	0.72 days
Cn1cc(Nc2nccc(-c3ccc4c(c3)CN(C3COC3)CC[C@H]4NC(=O)c3cn(C(C)(C)C)nn3)n2)cn1		human, whole blood	50 mg twice daily, day 7	reference: pre-dose baseline	plasmablast count change	128%
N[C@@H](C[18F])C(=O)O	PET imaging	female athymic nude mice, U-87 MG xenograft	intravenous, 60 min	reference: tumour over muscle	tumour-to-muscle ratio	1.2 ± 0.27
CCN1CCN(Cc2ccc(NC(=O)c3ccc(C)c(NC(=O)c4cncc(-c5cccs5)c4)c3)cc2C(F)(F)F)CC1		C57BL/6 mouse, plasma	intraperitoneal, 20 mg/kg, 0.25 to 8.0 h, single dose		AUC/dose	0.11 kg·µg·h/mL/mg
COc1ncc(-c2nc3c(n2C(C)C)[C@H](c2ccc(Cl)cc2)N(c2cc(Cl)cn(C)c2=O)C3=O)c(OC)n1		human patients, plasma	oral, 25 mg, 0-24 h, low-dose arm, cycle 2 day 1		AUC(0-t) geometric mean	2840 ng·h/mL
Cc1ccc(Sc2ccccc2N2CCNCC2)c(C)c1	measured: blood uric acid increased	healthy adult women	oral, 10 mg daily, 12 days		participants with TEAE	0%
CN(C)C(=O)c1cc2cnc(Nc3ccc(N4CCNCC4)cn3)nc2n1C1CCCC1		Sprague-Dawley rat, plasma			fraction unbound	~0.72

SMILES	test	test system	setting	how to read	endpoint	value
C[C@@H]1COCCN1c1cc(C2([S@](C)(=N)=O)CC2)nc(-c2cc[nH]c3nccc2-3)n1		Japanese advanced solid tumour patients	oral, 240 mg twice daily, CTCAE grade ≥3		Nausea incidence	0%
Cc1c(-c2ccc(N3CCc4cccc(C(=O)Nc5nc6ccccc6s5)c4C3)nc2C(=O)O)cnn1CC12CC3(C)CC(C)(C1)CC(OCCNCC[C@H](O)CO)(C3)C2		beagle dog, male, anaesthetised	intravenous infusion, 0.01 mg/kg/min, 45 min	reference: baseline	mean arterial pressure change	-1 mmHg
COc1ccnc(C(=O)N[C@H]2COC(=O)[C@H](Cc3ccccc3)[C@@H](O)[C@H](C)OC2=O)c1O	aerobic dark soil incubation	soil	geometric mean of 4 soils, persistence endpoint		DT50	10.2 days
NC1(C(=O)N[C@@H](CCO)c2ccc(Cl)cc2)CCN(c2nc[nH]c3nccc2-3)CC1		metastatic CRPC patients	480 mg b.i.d., grade 3 to 4, treatment-related, with: enzalutamide 160 mg daily		incidence of Neutropenia	20%
C[C@@H](Nc1cc(F)cc(F)c1)c1cc(C(=O)N(C)C)cc2c(=O)cc(N3CCOCC3)oc12		advanced solid tumour patients	oral, 30 mg twice daily, continuous monotherapy		any dose interruption	75%
N#Cc1ccc2c(c1)[C@H]1CCCN(C(=O)c3ccc4[nH]cnc4c3)[C@H]1C2		human	40 mg, day 7		minimum ACTH level	3.5 pmol/L
Cc1cc(Nc2ccc(S(F)(F)(F)(F)F)cc2)n2nc(C(C)(F)F)nc2n1		Plasmodium vivax malaria patients	oral, 400 mg		adverse event Fatigue	0%
O=C1CC[C@H](N2Cc3cc(N4CCN(CC5CCN(c6ccc([C@@H]7c8ccc(O)cc8CC[C@@H]7c7ccccc7)cc6)CC5)CC4)ccc3C2=O)C(=O)N1		human	oral, 200 mg, with: rosuvastatin 10 mg		participants with TEAE headache	8.3%
C=CCN1CC(=O)N2[C@@H](Cc3ccc(O)cc3F)C(=O)N(Cc3cccc(N4CC(N5CCN(CC)CC5)C4)n3)C[C@@H]2N1C(=O)NCc1ccccc1		advanced solid tumour patients	oral, 30 mg twice daily, grade ≥3, dose-escalation		any treatment-related adverse event	0%
CCCCOC(=O)N1CCN(C(=O)[C@H](CP(=O)(O)O)NC(=O)c2cc(N3CC[C@H](OC)C3)nc(-c3ccccc3)n2)CC1		human	subcutaneous, 8 mg, 24 h post-dose	reference: baseline	change in QT interval	-3.7 ± 24.2 ms
C/C(=N\NC(=O)Cn1c(-c2ccc(S(C)(=O)=O)cc2)nc2cc(Cl)ccc21)c1ccc(Cl)cc1		rat, stomach	concentration not given, 4 h	reference: normal control	ulcer preventive index	92.3%
CC(C)(C)NCC(O)c1cc(O)cc(O)c1 (stereo not shown)	equilibrium dialysis	rat, plasma			fraction unbound	0.66
Cc1cccc(CNC(=O)c2cn(CCNC(=O)c3ccccc3S)c3cc4c(cc3c2=O)OC(F)(F)O4)n1		Sprague-Dawley rat, male, plasma	intramuscular, 30 mg/kg of parent compound		AUC(0-t)	204 ± 42.9 ng·h/mL
O=C1NC(=O)/C(=C/c2ccc3ncnc(N4CCC(F)(F)CC4)c3n2)S1		NSG mice	dose not given, day 3		body weight	16.8 g and 17.6 g and 17.3 g and 18.7 g
O=C(O)CCC(=O)O.[2H]C([2H])([2H])Oc1cc(C)c2[nH]ccc2c1CN1CC[C@@H](C2CC2)C[C@H]1c1ccc(C(=O)O)cc1	multiple ascending dose	healthy Chinese subjects	200 mg once daily		subjects with papular urticaria TEAE	12.5%
O=C(OC(C(F)(F)F)C(F)(F)F)N1CCN(Cc2cccc(Oc3ccccc3)c2)CC1	PET blocking study	rhesus monkey, brain FCX	0.3 mg/kg, compound pretreatment, with: [18F]T-401 tracer		k2	0.126 min⁻¹
Cc1ccc2c(c1)C(=O)[C@]1(O)CCN(c3ccc4nc(C)ccc4c3)C1=N2		mouse	intraperitoneal, 10 mg/kg, 30 min	reference: brain over plasma	tissue/plasma ratio	1.6
Cc1cc(-c2nccc3c2ccn3CC(=O)Nc2ccc(-c3cnccn3)cn2)ccn1		human	5 mg once daily, multiple ascending dose		subjects with procedural pain	12.5%
CNCc1ccc(-c2[nH]c3cc(F)cc4c3c2CCNC4=O)cc1		patients	oral, 600 mg twice daily, grade 1		abdominal distension incidence	19.2%
C[C@@H](O)CCOC(=O)C[C@@H](C)O		human	oral drink, dose not given, 30 min post dose, mean		heart rate	75 beats/min
CCN1/C(=C/C(C)=O)Sc2ccc(F)cc21		cynomolgus monkey	oral, 100 mg/kg, 6 h post-dose		diastolic blood pressure	79 ± 6 mmHg
CC#CC(=O)N1CC[C@@H](n2c(=O)n(-c3ccc(Oc4ccccc4)cc3)c3c(N)ncnc32)C1		human, fasting, plasma	oral, 320 mg once daily, cycle 1 day 1		AUC(0-24h)	5700 ± 578 ng·h/mL
COc1cc(Nc2ncc3c(n2)-c2ccc(Cl)cc2C(c2c(F)cccc2OC)=NC3)ccc1C(=O)O		patients	oral, dose not given, grade 3, any attribution, with: pembrolizumab		decreased white cell count incidence	17%
CCn1cc(C(=O)N2CCOCC2)c(=O)c2cc(NC3Cc4ccccc4C3)cnc21		human, fasted	oral suspension, 2000 mg single dose, median		Tmax	1.5 h
Cc1ccc([C@@H]2O[C@H](CO)[C@@H](O)[C@H](O)[C@H]2O)cc1Cc1ccc(-c2ccc(F)cc2)s1		Japanese type 2 diabetes patients	100 mg, day 6, 24 h urine collection	reference: baseline	urinary chloride excretion change	-29.8 mEq
Cc1ccc(N(C)C(=O)/C=C/c2ccco2)cc1	cold plate test	mice	oral, 30 mg/kg daily for 7 days, 15 min after dose, day 8		licking latency	19.4 ± 0.5 s
CC(C)(C(=O)N1CCOc2c(C#N)cncc2C1)C(F)F	measured: renal and urinary disorders	human, both sexes	oral, 20 mg twice daily, 14 days, multiple ascending dose		subjects with TEAE	0%
